Measurements from different studies.
Numbered parts are unrelated; each lists some results of a single study.

Sample 1
Target: RNA binding protein fox-1 homolog 2, RRM domain, GST-SBP tag (RBFOX2, Homo sapiens, UniProt O43251-10, residues 100-194)
Method: RNA Bind-n-Seq
Molecule type: RNA
Medium: in vitro
Concentration: 365 nM
Notes: natural RNA segment, single round, ends assumed
Reference: no-protein control
Reading: higher = stronger binding
Quantity: RBNS enrichment (R)
Constant ends, left off below: GGGAGUUCUACAGUCCGACGAUC … UGGAAUUCUCGGGUGCCAA
Residues (chain): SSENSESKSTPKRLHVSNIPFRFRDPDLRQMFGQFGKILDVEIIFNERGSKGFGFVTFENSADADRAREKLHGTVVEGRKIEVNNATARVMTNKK
UUUGUUUUAAGAUGGGGUUUCUCUGUGUAACAUUCCUAGCUGUCCUGGAACUUGCUUUAUAGUCCAGGCUGGCCUCACAUCCACAGAGACAUGCUAGGAUUAAGGGUGUG: 0.318
UUGUUUUUGGUUUUUGUGUGUGUGUGUGUGUGCUGCAUGCACAUGCGUCCAAGACUUACGGGUGGUUUAGGGGAAAGUGCUAGCAACAGUGUCAAUGUCAUUGUUAACUA: 0.644
CUUGCUAUGUAUUAGCCGAUGUCUUUAGUGUUGAGCCUCUGGAUUCUGGGGUCUGGGCCAGUGGCCAUAGUGAAGCCUGGGAAUGAGUGUUACUGCAGCAUCUGGGCUGC: 0.963
GCCACAGGCUGGAAGCUGACAGCCUAGCAGGCACUCCCUUCCUCUCUUCCUUCUGCUGUGUUCCUAUAGCCACUGGGCUAAUCUCCCCCUUGCUUUAGGCUGUAUAUAGC: 0.624
AGUAAAUCCUUUGUAUUCCAGACUUUAGGGCAGAGCCCUGAGGGAGUAUUAUUUUACAUAACCCGUCCUAGAGUAACAUUUUAGGCAACAUUCUUCAUUGCAAGUAAAAG: 0.363
AAUAACCAUUUUUAUAAGCAGUUGCUCCUCUUUGCAUGGUUCUAUUCUCUAAAAGUGUUGAAUGAUACAGCCAUUGCACUGAAGUUUGAGCUGUGUGCGUGUGAAUUUAU: 2.38
CAGCCAGCUGGUUCUCCCGGGACACCAGCAGAUCCACACCCUGGGCACCUCCGUGUUUGGUCUUUUUUUUCCCCUGUGUGAAAGAAGAAACGGCACGACCCCUUCUCAAG: 0.308
GGACCCUGGUGUCUAUGGUGAAGCUGGGCCCUCCCACCCUGAGCCUUCCUAGACCCUUGGACUCUCAGAUGCAGGGCCCUUGGCUCUGGCCUCUCACCCCCAAGGCUGUC: 0.184
CGUCAUUGAGUACCUGAUUUUUAAAAGCAAGCACCCAAAUAAUUCUCUCUAGGGAAUCUCAUUUGUUACAGGUGAGAAGACAGAGGGUUUUAUGGUGCCUGAGUUAGUCC: 0.319
UUUUCAGUUCUCAUCCUCUCCAUCCCAAUCCAGUAUAUCAAUCAACUCUAACUCGGAGACGUCUAGCUGGCAAUGUUUCUAAAACUUUCACUGGAUUUCUUUAGACAUUG: 0.428
UGCUUCAGUCUCUGCCAUCUUCCAUGACUGCAUUUGUUCCUGCCUGCCUCGGCGGUAUCCACAGAAGACAGGCAAGAGGAUUGGAGCAGUUUUCUCACAGGUCUGCAAUU: 1.91
GAGAUGUGUAAUUCUUUUAUGGAGUUUUUAAAAAGAAUUUUCAUAUUGUUUUUCUAACAUGGCUUCAUUAAACGUUUAAGUAUUUUAAAAAUAUGUAAUAUUUGGACCAG: 0.562

Sample 2
Target: Prothrombin, mature alpha-thrombin (F2, Homo sapiens, UniProt P00734)
Method: aptamer microarray, sandwich
Molecule type: DNA with 2'F-ANA
Medium: in vitro
Concentration: 200 nM
Notes: whole 15-mer aptamer, many near background
Together with: Cy3 exosite-II aptamer, 400 nM
Reading: higher = stronger binding
Quantity: mean fluorescence intensity
Strand: GGTTGGTGTGGTTGG
2'F-ANA at 1 2 3 4 7 14 15: 82 a.u.
2'F-ANA at 4 5 6 7 10 11 14: 47.4 a.u.
2'F-ANA at 4 5 8 10 11 14: 43.5 a.u.
2'F-ANA at 2 3 9 10 11 12 13 15: 450 a.u.
2'F-ANA at 3 4 6 10 12 15: 290 a.u.
2'F-ANA at 1 4 6 9 11 14 15: 48.4 a.u.
2'F-ANA at 1 2 3 4 5 7 8 10 11 14: 43.6 a.u.
2'F-ANA at 3 7 8 10 11 14: 496 a.u.
2'F-ANA at 2 3 4 7 8 11 14: 338 a.u.
2'F-ANA at 1 6 7: 185 a.u.
2'F-ANA at 1 3 4 5 7 8 10 11 12 14 15: 47.1 a.u.
2'F-ANA at 1 2 4 9 10 11 13 15: 115 a.u.
2'F-ANA at 1 10 11 12 14: 47.2 a.u.
2'F-ANA at 2 4 5 6 11 12 15: 94.4 a.u.
2'F-ANA at 2 5 8 11 12 13 14: 51.7 a.u.
2'F-ANA at 1 2 3 5 6 7 8 11 12 14: 48.9 a.u.
2'F-ANA at 1 2 5 6 12: 107 a.u.
2'F-ANA at 1 2 4 5 6 7 10 11 14 15: 46 a.u.
2'F-ANA at 3 4 5 12: 281 a.u.
2'F-ANA at 1 3 4 6 8 9 11 12 13 14: 142 a.u.
2'F-ANA at 3 4 6 7 9 10 11 12 13 15: 200 a.u.
2'F-ANA at 3 4 10: 317 a.u.
2'F-ANA at 5 6 11 12 13 14 15: 47.4 a.u.
2'F-ANA at 4 6 7 8 9 11 14: 93.3 a.u.
2'F-ANA at 1 2 3 4 6 7 9 12: 303 a.u.

Sample 3
Target: Histone acetyltransferase KAT6A, winged helix 2, GST fusion (KAT6A, Homo sapiens, UniProt Q92794, residues 85-181)
Method: protein binding microarray
Molecule type: double-stranded DNA, one strand shown
Medium: in vitro
Concentration: not given
Notes: 8-mer, flanks averaged, mean of 2 arrays, mostly near background
Reference: not given
Reading: higher = stronger binding
Quantity: E-score
Residues (chain): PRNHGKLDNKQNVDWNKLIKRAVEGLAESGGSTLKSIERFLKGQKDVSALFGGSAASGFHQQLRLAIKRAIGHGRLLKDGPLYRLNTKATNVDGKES
GGCGCGCC: 0.277
AAGCAATC: -0.0314
AACTCCGG: 0.208
GTCTAGAA: -0.147
CGTCTAAG: -0.0293
AAGTTCAT: 0.0353
AATATTAA: 0.203
CATGATAG: 0.115
TAAACACA: 0.0351
TAGTGTAA: 0.0202
CTCGACAG: 0.00683
ACCAGTCC: -0.206
TCGACTCA: -0.0478
AATCGCTG: -0.0635
GTACCCAA: 0.0455
CCATATGA: -0.083
CCGTACCG: 0.0407
AAGACATG: -0.146
GTCGCACA: 0.0595

Sample 4
Target: Fragile X messenger ribonucleoprotein 1, C-terminal low-complexity region (Fmr1, Mus musculus, UniProt P35922)
Method: RNA Bind-n-Seq
Molecule type: RNA
Medium: in vitro
Concentration: 200 nM
Notes: whole 134-nt RNA, ends assumed
Together with: 150 mM LiCl
Reference: input library
Reading: higher = stronger binding
Quantity: log2 enrichment
Library: 7-deaza-guanosine replaces G
Constant ends, left off below: GGGAGUUCUACAGUCCGACGAUC … UGGAAUUCUCGGGUGUCAAGG
UAACUUUAGAGGAGGAUCUGAUGGAUAUGGCAGUGGACGUGCAUUUGGGGAUGGCUAUAAUGGGUAUGGAGGAGGACCUGGAGGUGGCAA: -0.93
ACCAUGCAGGUGGGCAUCUUUGGGAAGUGGGGCAAGGGGGGGAUAGGGAGGGGGGUAACACUUUGGGAACAGGUGGGCCCAGGUCGUUUC: 1.68
CUCAAGUCCUGUGCUACACAUCGUAUGUACCGAAUCGGGGCGGGCGGGGCGGGGAAAGUAUUAUGUUACGCCGUUCGGAUCUGCACUUCC: -0.885
UCCUCAAGUCCUGUGCUACACAUCGUAUGUACCGAAUCGGGUGGUGGUGGGGAAAGUAUUAUGUUACGCCGUUCGGAUCUGCACUUCCAG: 0.0985
UUUGCUGUUGUUAACCAUCAAGGGACCUUGGAGAGUGGCCACUACACCAGCUUUAUCCGGCAGCACAAAGACCAGUGGUUCAAGUGUGAC: -2.18
CUGUGCUACACAUCGUAUGUACCGAAUCGGUUUUUUUGGGUUUUUUUGGGUUUUUUUGGGGAAAGUAUUAUGUUACGCCGUUCGGAUCUG: 0.897
AGUCCUGUGCUACACAUCGUAUGUACCGAAUCAAACCCCCCCAAAUUUAAACCCAAAAAAGUAUUAUGUUACGCCGUUCGGAUCUGCACU: 1.02
UUGUGAGCUGCAAGCUAGGCUGCAGGCCCAGGAAGAACAGCAUCAGGAAGUCCAGAAGGCAAAAGAAGCAGACAUAGAGAAGCUGAACCA: -2.23
CAAGUCCUGUGCUACACAUCGUAUGUACCGAAUCGGGAAAGGGGAAAGGGAAAGGAAAGUAUUAUGUUACGCCGUUCGGAUCUGCACUUC: -0.432
CCUGUGCUACACAUCGUAUGUACCGAAUCAAAUUUUUUUAAAUUUUUAAACCCCCCCAAAAAAGUAUUAUGUUACGCCGUUCGGAUCUGC: 1.51
UAACUUUAGAGGAGGAUCUGAUGGAUAUGGCAGUGGACGUGGAUUUGGUGAUGGCUAUAAUGGGUAUGGAGGAGGACCUGGAGGUGGCAA: 0.145

For quick reference, copied from above (sample 4):
ACCAUGCAGGUGGGCAUCUUUGGGAAGUGGGGCAAGGGGGGGAUAGGGAGGGGGGUAACACUUUGGGAACAGGUGGGCCCAGGUCGUUUC: 1.68
CUCAAGUCCUGUGCUACACAUCGUAUGUACCGAAUCGGGGCGGGCGGGGCGGGGAAAGUAUUAUGUUACGCCGUUCGGAUCUGCACUUCC: -0.885
UCCUCAAGUCCUGUGCUACACAUCGUAUGUACCGAAUCGGGUGGUGGUGGGGAAAGUAUUAUGUUACGCCGUUCGGAUCUGCACUUCCAG: 0.0985
